Assay results gathered from unrelated publications.
Every numbered part comes from another study and shows a few of its results, in no order. Values joined by “and” are separate records of one study, mostly repeats; a detail may differ.
Sequence of UniProt P29376 (whole entry, looked up): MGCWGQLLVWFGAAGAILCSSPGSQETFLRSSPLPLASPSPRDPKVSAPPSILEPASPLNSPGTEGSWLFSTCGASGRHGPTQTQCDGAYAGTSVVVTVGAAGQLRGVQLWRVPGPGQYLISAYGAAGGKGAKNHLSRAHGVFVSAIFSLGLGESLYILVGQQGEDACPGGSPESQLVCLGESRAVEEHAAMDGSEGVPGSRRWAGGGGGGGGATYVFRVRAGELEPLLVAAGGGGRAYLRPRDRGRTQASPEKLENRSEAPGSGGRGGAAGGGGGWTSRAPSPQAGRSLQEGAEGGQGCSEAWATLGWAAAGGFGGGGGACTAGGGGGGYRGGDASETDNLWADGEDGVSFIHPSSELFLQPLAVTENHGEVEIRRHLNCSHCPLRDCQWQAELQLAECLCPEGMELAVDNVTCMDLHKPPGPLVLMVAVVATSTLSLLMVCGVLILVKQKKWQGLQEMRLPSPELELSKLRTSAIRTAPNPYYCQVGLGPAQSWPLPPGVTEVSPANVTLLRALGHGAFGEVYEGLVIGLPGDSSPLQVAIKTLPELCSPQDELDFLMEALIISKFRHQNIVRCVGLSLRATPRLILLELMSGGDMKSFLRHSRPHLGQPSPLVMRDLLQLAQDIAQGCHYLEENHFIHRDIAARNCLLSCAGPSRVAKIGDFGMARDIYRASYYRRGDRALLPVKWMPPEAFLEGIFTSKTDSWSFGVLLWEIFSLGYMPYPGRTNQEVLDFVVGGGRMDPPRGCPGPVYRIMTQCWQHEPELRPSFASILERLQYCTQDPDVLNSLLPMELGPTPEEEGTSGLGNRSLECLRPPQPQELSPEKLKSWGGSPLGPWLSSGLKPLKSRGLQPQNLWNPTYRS
Sequence of UniProt P04629 (whole entry, looked up): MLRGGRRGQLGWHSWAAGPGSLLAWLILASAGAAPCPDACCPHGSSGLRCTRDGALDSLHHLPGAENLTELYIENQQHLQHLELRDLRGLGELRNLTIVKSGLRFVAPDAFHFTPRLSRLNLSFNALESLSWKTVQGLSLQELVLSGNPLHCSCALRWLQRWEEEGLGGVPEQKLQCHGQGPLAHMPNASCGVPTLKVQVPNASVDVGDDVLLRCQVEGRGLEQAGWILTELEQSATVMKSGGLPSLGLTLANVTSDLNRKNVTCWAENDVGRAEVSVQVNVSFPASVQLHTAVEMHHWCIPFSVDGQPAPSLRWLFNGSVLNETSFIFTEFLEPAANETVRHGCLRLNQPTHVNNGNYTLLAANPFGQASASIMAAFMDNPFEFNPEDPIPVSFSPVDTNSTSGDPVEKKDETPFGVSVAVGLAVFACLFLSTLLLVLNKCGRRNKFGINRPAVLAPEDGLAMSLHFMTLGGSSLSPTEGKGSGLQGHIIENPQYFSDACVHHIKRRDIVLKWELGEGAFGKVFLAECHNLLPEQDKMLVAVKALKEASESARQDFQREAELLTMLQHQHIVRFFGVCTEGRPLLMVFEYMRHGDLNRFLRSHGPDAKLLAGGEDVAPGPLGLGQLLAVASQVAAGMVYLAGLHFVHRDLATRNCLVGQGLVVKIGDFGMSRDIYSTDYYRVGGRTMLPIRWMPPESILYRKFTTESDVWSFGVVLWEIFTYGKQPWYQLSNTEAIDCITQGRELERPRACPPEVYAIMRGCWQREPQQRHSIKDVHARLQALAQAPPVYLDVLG
Sequence of UniProt P06241 (whole entry, looked up): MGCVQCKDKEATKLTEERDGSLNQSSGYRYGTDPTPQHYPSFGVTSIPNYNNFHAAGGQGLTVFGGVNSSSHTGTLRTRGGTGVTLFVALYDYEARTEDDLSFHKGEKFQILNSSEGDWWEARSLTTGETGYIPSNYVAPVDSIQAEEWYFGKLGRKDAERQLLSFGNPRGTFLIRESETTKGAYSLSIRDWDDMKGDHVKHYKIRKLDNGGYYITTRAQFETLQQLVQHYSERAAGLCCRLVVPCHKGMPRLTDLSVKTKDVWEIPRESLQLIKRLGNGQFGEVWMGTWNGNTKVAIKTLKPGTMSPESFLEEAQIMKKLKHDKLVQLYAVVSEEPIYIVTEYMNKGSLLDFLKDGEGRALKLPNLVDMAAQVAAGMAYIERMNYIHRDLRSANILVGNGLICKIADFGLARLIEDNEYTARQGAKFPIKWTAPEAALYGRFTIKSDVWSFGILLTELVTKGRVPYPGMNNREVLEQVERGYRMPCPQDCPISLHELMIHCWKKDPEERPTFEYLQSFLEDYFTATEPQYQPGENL
Sequence of UniProt P04049 (whole entry, looked up): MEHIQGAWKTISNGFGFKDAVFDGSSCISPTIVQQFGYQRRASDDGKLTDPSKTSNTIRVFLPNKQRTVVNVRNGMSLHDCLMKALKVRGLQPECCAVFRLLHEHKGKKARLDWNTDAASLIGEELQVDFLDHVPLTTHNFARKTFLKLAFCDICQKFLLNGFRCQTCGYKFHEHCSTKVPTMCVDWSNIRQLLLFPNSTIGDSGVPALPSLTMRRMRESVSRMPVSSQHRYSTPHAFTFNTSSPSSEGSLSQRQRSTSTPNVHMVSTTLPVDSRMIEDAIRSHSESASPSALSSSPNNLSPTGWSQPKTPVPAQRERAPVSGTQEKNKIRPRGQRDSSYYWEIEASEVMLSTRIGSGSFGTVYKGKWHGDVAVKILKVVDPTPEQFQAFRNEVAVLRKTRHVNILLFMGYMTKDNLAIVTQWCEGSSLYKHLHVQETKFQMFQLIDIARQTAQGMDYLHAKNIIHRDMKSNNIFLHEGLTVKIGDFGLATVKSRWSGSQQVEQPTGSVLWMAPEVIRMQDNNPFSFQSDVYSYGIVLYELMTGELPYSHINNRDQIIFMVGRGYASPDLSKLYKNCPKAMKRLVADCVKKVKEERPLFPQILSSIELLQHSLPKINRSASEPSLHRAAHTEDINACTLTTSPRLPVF
Sequence of UniProt P11802 (whole entry, looked up): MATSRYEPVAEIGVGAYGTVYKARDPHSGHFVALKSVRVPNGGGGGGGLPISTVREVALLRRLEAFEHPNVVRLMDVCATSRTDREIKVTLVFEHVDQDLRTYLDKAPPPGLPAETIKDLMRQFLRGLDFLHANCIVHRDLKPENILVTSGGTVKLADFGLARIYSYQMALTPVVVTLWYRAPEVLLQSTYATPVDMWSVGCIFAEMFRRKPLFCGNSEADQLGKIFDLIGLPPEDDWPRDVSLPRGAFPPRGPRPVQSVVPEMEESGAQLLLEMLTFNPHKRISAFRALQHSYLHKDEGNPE
Sequence of UniProt Q08345 (whole entry, looked up): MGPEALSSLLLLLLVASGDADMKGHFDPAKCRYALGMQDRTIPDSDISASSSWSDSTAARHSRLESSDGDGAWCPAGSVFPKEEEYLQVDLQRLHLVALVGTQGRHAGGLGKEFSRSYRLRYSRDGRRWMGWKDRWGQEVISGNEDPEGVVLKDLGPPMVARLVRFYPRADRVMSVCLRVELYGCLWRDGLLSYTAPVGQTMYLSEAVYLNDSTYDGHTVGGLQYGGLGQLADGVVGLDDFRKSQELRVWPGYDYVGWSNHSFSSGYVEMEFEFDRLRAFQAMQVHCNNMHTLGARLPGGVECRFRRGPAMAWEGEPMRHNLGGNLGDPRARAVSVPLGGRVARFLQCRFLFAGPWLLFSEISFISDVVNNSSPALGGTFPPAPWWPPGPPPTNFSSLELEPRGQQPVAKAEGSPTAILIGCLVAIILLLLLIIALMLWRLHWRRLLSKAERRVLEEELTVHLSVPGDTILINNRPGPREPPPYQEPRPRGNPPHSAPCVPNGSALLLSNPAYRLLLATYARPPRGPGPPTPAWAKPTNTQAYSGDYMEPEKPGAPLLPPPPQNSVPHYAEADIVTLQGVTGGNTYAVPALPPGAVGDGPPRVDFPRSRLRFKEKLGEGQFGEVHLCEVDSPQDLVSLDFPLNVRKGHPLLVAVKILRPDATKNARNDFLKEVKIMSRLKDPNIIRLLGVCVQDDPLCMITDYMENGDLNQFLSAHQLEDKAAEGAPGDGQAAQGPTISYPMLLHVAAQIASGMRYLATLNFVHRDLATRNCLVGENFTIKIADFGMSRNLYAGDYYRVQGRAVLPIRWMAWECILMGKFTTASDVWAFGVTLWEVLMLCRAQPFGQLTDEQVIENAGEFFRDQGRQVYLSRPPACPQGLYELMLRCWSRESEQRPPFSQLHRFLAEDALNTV

Sample 1 — method: Phase 2a trial; host: idiopathic pulmonary fibrosis patients
SMILES: CC(C)n1cnc(-c2ccc(F)cc2)c1-c1ncc(C(=O)Nc2ccc(N3CCN(C)CC3)cc2)[nH]1
item	dose	notes	patients with adverse events [%]
back pain	60 mg once daily	grade 3 maximum intensity	0
reticulocyte count increased	60 mg once daily	grade 3 maximum intensity	0
chest discomfort	dose not given	grade 4 maximum intensity, all arms	0
bile acids increased	dose not given	grade 5 maximum intensity, all arms	0
blood alkaline phosphatase increased	dose not given	grade 2 maximum intensity, all arms	0
respiratory tract infection	30 mg once daily	grade 1 maximum intensity	0
neutrophil count increased	60 mg once daily	grade 2 maximum intensity	0
respiratory tract infection	30 mg once daily	grade 4 maximum intensity	0
blood bilirubin increased	30 mg once daily	grade 3 maximum intensity	0
gamma-glutamyltransferase increased	30 mg once daily	grade 5 maximum intensity	0
urinary tract infection	30 mg once daily	grade 2 maximum intensity	0

Sample 2 — effect on: cell-free assay; method: competition with immobilised ligand; concentration: 1 µM
Structure (SMILES): CNCc1ccccc1-c1csc([C@H](C)Nc2nc(C)nc3cc(OC)c(OC)cc23)c1
target	remaining binding
LTK (Homo sapiens, UniProt P29376)	98%
Cyclin-dependent kinase 4, with cyclin D1 (CDK4, Homo sapiens, UniProt P11802)	77%
NTRK1 (Homo sapiens, UniProt P04629)	87%
EPHB4 (Homo sapiens, UniProt P54760)	100%
FYN (Homo sapiens, UniProt P06241)	100%
Ribosomal protein S6 kinase alpha-4, N-terminal kinase domain (RPS6KA4, Homo sapiens, UniProt O75676)	100%
TNK1 (Homo sapiens, UniProt Q13470)	85%
MAP4K4 (Homo sapiens, UniProt O95819)	97%
Tyrosine-protein kinase ABL1, phosphorylated (ABL1, Homo sapiens, UniProt P00519)	100%
CDK9 (Homo sapiens, UniProt P50750)	100%
DDR1 (Homo sapiens, UniProt Q08345)	100%
Receptor-type tyrosine-protein kinase FLT3, autoinhibited (FLT3, Homo sapiens, UniProt P36888)	93%
BMX (Homo sapiens, UniProt P51813)	58%
RAF1 (Homo sapiens, UniProt P04049)	65%
NEK7 (Homo sapiens, UniProt Q8TDX7)	100%

Sample 3 — cell line: mouse MPNST tumor cells; method: high-content immunofluorescence imaging; item: nuclear SOX9; concentration: 10 µM; time: 12 h; notes: mean of 2 replicates; reference: DMSO control; direction: higher = more nuclear SOX9
Compound	nuclear SOX9 intensity
CC(C)(Oc1ccc(CCNC(=O)c2ccc(Cl)cc2)cc1)C(=O)O	104 % of DMSO
CCCc1cc(C(N)=S)ccn1	102 % of DMSO
NC(N)=N/N=C/c1ccccc1Cl	119 % of DMSO
Nc1cccc(-c2cc3c(Oc4cccc(O)c4)ncnc3[nH]2)c1	249 % of DMSO
CC(Oc1c(Cl)cccc1Cl)C1=NCCN1 (centres unmarked)	108 % of DMSO
CC(C)N(CCCCOCC(=O)NS(C)(=O)=O)c1cnc(-c2ccccc2)c(-c2ccccc2)n1	88.8 % of DMSO
CC(=O)O[C@H]1CC[C@@]2(C)C(=CC[C@@H]3[C@@H]2CC[C@]2(C)C(c4cccnc4)=CC[C@@H]32)C1	106 % of DMSO
CN(C)CC/C=C1/c2ccccc2COc2ccc(CC(=O)O)cc21	95.9 % of DMSO and 89.1 % of DMSO
O=C(CCBr)N1CCN(C(=O)CCBr)CC1	102 % of DMSO
CC(=O)O[C@]1(C(C)=O)CC[C@H]2[C@@H]3C=C(Cl)C4=CC(=O)[C@@H]5C[C@@H]5[C@]4(C)[C@H]3CC[C@@]21C	97.4 % of DMSO
CCOc1ccc(Cc2nccc3cc(OCC)c(OCC)cc23)cc1OCC	99.3 % of DMSO
COc1ccc(S(=O)(=O)N2CCC[C@H]2C(=O)Nc2cc(C)cc(C)c2)cc1	123 % of DMSO
Clc1ccc(COC(Cn2ccnc2)c2ccc(Cl)cc2Cl)cc1 (centres unmarked)	147 % of DMSO
CN(C/C=C/C#CC(C)(C)C)Cc1cccc2ccccc12	103 % of DMSO
COC(=O)c1cnn(-c2ccc(F)cc2F)c1C=NNC(=S)NC(C)(C)C	92.2 % of DMSO
CN1CC[C@@H](NC(=O)Nc2ccc(C#N)cc2)C[C@@H]1c1nc2ccccc2[nH]1	91.9 % of DMSO

Sample 4 — effect on: enzyme activity; action: inhibitor; concentration: 0.5 µM; reference: control
Target: Serine/threonine-protein kinase PAK 5 (PAK5, Homo sapiens, UniProt Q9P286)
Sequence of UniProt Q9P286 (whole entry, looked up): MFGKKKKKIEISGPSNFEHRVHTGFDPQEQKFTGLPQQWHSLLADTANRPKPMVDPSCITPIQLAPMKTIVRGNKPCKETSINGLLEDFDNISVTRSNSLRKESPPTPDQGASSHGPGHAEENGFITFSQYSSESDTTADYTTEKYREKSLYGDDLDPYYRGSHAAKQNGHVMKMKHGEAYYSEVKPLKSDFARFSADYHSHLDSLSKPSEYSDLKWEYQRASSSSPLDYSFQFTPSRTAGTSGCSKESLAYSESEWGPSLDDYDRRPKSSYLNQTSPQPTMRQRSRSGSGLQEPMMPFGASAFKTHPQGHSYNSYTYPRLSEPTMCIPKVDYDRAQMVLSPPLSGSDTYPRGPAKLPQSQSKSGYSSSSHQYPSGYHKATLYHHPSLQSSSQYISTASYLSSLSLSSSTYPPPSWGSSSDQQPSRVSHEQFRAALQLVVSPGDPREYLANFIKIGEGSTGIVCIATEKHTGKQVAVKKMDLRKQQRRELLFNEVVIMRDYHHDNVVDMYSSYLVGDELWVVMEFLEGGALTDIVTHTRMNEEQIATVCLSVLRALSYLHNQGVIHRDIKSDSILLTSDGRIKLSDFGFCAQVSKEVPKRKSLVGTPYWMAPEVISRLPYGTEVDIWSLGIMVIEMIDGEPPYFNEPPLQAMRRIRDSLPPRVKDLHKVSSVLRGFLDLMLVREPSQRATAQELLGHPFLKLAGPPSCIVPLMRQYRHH
Compound	remaining activity [%]
COc1ccc(COc2ccc(Cc3cnc(N)nc3N)cc2OC)cc1	103
COc1ccc2c(c1)c(C1=C(c3c[nH]c4ccccc34)C(=O)NC1=O)cn2CCCN(C)C	67.6
O=c1cc(N2CCOCC2)oc2c(-c3ccccc3)cccc12	104
O=C(c1cc2cc(O)ccc2[nH]1)c1cc2cc(O)ccc2[nH]1	85.3
COc1cccc(-c2cc(=O)c3ccccc3o2)c1N	99.7
Cc1ccc(S(=O)(=O)/C=C/C#N)cc1	100
O=Nc1c(-c2c(O)[nH]c3cc(Br)ccc23)[nH]c2ccccc12	104
CN1CCN(c2ccc3nc(-c4c(N)c5c(F)cccc5[nH]c4=O)[nH]c3c2)CC1	82.7
O=C1Cc2c([nH]c3ccc(Br)cc23)-c2ccccc2N1	85.1
O=C1NC(=O)c2c1c1c3ccccc3[nH]c1c1[nH]c3cc(Br)ccc3c21	96.7
c1ccc2c(-c3ccncc3)c[nH]c2c1	93.8

A few entries again (sample 3):
Compound	nuclear SOX9 intensity
CC(C)N(CCCCOCC(=O)NS(C)(=O)=O)c1cnc(-c2ccccc2)c(-c2ccccc2)n1	88.8 % of DMSO
Clc1ccc(COC(Cn2ccnc2)c2ccc(Cl)cc2Cl)cc1 (centres unmarked)	147 % of DMSO
Nc1cccc(-c2cc3c(Oc4cccc(O)c4)ncnc3[nH]2)c1	249 % of DMSO
CN1CC[C@@H](NC(=O)Nc2ccc(C#N)cc2)C[C@@H]1c1nc2ccccc2[nH]1	91.9 % of DMSO
CC(C)(Oc1ccc(CCNC(=O)c2ccc(Cl)cc2)cc1)C(=O)O	104 % of DMSO
